{"data": "Experimental data gathered from unrelated publications", "note": "Each numbered part is a random draw from the data of one study; scales do not carry over between parts.", "sequence of UniProt P35367 (whole entry, looked up)": "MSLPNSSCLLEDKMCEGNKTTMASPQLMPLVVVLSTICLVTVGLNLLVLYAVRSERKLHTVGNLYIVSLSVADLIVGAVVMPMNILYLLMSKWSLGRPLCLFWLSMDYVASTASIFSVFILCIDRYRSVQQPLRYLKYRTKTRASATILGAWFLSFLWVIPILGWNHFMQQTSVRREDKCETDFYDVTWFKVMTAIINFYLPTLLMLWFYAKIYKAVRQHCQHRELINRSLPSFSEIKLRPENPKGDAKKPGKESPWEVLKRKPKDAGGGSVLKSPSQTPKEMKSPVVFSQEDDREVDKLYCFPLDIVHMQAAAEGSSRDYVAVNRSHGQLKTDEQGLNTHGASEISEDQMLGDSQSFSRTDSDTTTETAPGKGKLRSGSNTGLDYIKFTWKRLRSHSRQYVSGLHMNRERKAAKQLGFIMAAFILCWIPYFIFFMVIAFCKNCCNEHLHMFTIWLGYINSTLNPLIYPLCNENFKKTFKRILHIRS", "sequence of UniProt P41595 (whole entry, looked up)": "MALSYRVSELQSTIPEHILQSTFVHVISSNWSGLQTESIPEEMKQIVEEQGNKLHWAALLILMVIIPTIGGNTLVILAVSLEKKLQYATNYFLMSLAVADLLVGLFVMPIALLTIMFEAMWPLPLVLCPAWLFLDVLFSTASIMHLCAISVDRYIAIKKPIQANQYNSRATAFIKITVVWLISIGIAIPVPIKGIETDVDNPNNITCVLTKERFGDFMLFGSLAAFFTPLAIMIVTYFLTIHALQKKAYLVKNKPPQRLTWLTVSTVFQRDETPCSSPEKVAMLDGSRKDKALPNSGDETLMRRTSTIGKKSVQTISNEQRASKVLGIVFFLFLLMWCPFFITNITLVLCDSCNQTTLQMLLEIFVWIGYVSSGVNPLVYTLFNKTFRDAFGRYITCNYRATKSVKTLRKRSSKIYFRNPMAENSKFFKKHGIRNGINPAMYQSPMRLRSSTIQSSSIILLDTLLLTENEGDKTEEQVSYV", "sequence of UniProt Q9Y5N1 (whole entry, looked up)": "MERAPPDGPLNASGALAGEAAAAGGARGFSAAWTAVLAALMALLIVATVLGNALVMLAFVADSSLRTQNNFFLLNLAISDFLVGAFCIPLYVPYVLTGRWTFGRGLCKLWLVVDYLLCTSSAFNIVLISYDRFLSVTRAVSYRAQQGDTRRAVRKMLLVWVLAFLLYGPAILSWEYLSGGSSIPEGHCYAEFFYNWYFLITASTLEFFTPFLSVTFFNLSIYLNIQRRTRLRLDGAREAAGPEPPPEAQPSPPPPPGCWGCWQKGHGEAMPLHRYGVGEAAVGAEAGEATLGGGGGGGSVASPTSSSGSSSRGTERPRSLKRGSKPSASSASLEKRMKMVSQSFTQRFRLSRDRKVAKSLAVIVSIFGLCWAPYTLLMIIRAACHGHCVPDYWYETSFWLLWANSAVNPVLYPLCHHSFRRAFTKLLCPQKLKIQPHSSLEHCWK", "sequence of UniProt P07550 (whole entry, looked up)": "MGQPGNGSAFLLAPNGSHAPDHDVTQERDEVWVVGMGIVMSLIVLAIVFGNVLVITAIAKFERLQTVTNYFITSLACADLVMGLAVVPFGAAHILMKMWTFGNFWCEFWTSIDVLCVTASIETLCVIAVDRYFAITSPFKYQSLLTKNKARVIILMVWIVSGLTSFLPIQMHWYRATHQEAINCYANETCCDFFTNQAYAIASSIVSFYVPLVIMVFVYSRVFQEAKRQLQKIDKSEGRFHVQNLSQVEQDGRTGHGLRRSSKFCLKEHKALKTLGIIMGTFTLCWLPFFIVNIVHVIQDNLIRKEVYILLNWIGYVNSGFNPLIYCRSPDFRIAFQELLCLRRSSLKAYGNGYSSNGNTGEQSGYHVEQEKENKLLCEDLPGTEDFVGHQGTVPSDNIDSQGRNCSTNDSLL", "sequence of UniProt P08172 (whole entry, looked up)": "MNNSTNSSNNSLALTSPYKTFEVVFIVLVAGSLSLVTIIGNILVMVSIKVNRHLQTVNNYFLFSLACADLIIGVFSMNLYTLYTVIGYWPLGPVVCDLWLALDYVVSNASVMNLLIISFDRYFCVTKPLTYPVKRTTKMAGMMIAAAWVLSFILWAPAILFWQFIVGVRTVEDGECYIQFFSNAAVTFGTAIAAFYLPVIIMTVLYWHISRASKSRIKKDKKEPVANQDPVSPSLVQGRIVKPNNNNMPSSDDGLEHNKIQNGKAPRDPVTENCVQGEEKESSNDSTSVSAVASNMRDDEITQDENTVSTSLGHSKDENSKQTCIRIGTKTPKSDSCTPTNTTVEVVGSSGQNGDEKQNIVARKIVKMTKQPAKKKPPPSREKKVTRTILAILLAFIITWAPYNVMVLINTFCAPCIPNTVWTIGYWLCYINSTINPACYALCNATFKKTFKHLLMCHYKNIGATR", "sequence of UniProt Q9H3N8 (whole entry, looked up)": "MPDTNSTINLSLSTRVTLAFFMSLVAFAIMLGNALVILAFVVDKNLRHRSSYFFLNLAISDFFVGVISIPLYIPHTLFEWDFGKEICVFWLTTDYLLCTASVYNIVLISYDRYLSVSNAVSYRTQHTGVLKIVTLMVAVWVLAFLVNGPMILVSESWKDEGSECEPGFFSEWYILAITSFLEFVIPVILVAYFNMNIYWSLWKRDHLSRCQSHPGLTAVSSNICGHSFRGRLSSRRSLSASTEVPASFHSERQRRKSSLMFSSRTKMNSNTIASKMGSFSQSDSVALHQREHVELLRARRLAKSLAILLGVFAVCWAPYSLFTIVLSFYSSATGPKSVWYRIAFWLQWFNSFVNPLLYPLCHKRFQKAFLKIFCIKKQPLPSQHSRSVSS", "sequence of UniProt P18089 (whole entry, looked up)": "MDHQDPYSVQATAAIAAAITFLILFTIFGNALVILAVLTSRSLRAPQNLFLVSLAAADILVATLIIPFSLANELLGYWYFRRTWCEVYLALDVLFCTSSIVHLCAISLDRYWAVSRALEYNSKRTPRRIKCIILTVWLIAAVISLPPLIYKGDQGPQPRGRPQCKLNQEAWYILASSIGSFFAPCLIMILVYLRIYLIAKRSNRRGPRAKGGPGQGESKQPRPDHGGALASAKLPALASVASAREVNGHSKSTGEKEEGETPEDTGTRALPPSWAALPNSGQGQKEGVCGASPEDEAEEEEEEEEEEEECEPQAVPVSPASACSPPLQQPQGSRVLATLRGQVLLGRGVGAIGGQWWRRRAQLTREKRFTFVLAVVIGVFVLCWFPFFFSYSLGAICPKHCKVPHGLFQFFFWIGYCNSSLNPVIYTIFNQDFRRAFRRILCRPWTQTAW", "sequence of UniProt P08912 (whole entry, looked up)": "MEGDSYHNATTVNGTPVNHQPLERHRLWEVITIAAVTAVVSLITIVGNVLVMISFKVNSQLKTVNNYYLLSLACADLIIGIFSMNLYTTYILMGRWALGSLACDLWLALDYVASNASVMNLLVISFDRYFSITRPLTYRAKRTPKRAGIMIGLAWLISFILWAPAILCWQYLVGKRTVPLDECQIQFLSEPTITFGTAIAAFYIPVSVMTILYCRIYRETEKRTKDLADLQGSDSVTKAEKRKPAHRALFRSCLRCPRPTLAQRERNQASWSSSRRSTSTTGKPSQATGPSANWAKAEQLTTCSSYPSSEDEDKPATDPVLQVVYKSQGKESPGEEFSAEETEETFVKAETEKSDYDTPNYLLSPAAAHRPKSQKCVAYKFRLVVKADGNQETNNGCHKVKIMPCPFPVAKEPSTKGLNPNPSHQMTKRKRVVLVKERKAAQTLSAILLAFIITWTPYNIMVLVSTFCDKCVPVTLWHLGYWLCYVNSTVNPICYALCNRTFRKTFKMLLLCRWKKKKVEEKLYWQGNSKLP", "sequence of UniProt P25021 (whole entry, looked up)": "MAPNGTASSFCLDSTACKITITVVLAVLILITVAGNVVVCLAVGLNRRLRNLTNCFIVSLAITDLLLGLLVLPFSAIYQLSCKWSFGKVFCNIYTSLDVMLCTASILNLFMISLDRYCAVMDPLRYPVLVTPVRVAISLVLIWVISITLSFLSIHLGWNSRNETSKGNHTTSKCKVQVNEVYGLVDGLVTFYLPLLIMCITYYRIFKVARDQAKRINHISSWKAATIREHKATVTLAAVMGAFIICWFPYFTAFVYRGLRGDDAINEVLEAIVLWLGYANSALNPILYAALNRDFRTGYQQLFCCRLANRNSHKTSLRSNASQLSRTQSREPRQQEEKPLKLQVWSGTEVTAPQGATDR", "sequence of UniProt P08913 (whole entry, looked up)": "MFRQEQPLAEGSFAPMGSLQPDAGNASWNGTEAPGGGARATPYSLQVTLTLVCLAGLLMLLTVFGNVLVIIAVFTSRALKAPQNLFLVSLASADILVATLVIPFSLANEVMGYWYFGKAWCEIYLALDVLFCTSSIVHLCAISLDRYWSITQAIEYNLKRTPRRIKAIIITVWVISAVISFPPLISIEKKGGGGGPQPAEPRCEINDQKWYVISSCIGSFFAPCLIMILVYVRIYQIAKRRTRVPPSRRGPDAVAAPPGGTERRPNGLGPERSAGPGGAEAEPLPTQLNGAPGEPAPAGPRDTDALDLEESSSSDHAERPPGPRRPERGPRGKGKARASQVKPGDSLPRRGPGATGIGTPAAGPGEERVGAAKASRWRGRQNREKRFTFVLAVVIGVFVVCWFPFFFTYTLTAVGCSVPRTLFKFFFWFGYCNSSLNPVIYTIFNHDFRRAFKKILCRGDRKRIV"}
{"data": "Sample 1", "Structure (SMILES)": "CC(=O)Nc1c(C(C)=O)c(=O)n(C)c2nc(-c3ccc(Cl)cc3Cl)c(-c3ccc(Cl)cc3)cc12", "observed": "cell-free assay", "tested at": "10 µM"}
{"target": "ADRA1D (Homo sapiens, UniProt P25100)", "inhibition": "-3.09%"}
{"target": "HRH2 (Homo sapiens, UniProt P25021)", "inhibition": "6.71%"}
{"target": "CHRM5 (Homo sapiens, UniProt P08912)", "inhibition": "-4.54%"}
{"target": "CHRM2 (Homo sapiens, UniProt P08172)", "inhibition": "-7.96%"}
{"target": "ADRA2A (Homo sapiens, UniProt P08913)", "inhibition": "1.31%"}
{"target": "HRH1 (Homo sapiens, UniProt P35367)", "inhibition": "-1.39%"}
{"target": "HTR2B (Homo sapiens, UniProt P41595)", "inhibition": "1.6%"}
{"target": "HRH3 (Homo sapiens, UniProt Q9Y5N1)", "inhibition": "-2.68%"}
{"target": "HRH4 (Homo sapiens, UniProt Q9H3N8)", "inhibition": "13.9%"}
{"target": "ADRB2 (Homo sapiens, UniProt P07550)", "inhibition": "12.6%"}
{"target": "ADRA2B (Homo sapiens, UniProt P18089)", "inhibition": "16.6%"}
{"data": "Sample 2", "species": "mouse", "sample": "microsomes or S9", "tested at": "2 µM", "time": "0.5 h"}
{"Compound": "Cc1ccc2nc(-c3nnc(-c4noc5c4CC(C)CC5)o3)ccc2c1 (stereo not drawn)", "remaining compound": "0.0361%"}
{"Compound": "O=S(=O)(c1cn[nH]c1)N1CCCC(c2cnccn2)C1 (stereo not drawn)", "remaining compound": "53.3%"}
{"Compound": "CCOC(=O)Cn1nc(C)c(NC(=O)Cn2nc(C)c(Br)c2C)c1C", "remaining compound": "55.8%"}
{"Compound": "O=C(NC1CCCc2ccccc21)c1ccc(CS(=O)(=O)c2ccc(Br)cc2)o1 (stereo not drawn)", "remaining compound": "22.9%"}
{"Compound": "CN1CCC(N(C)C(=O)c2cc3cc(Br)cc(Br)c3o2)CC1", "remaining compound": "54.7%"}
{"Compound": "C[C@@H](c1cn(-c2cccc[n+]2[O-])c(=O)c2c(C(F)(F)F)cccc12)N1C(=O)c2ccccc2C1=O", "remaining compound": "1.62%"}
{"data": "Sample 3", "cell line": "HaCaT", "tested at": "100 µM", "time": "36 h"}
{"SMILES": "Oc1cc(O)cc(/C=C/c2ccc(O)c(O)c2)c1", "viability [%]": 97.8}
{"SMILES": "NC[C@H]1O[C@H](O[C@H]2[C@H](O[C@@H]3O[C@H](CO)[C@@H](O)[C@H]3O)[C@@H](O)[C@H](N)C[C@@H]2N)[C@H](N)[C@@H](O)[C@@H]1O", "viability [%]": 96.6}
{"SMILES": "Cc1ccccc1C(=O)Nc1ccc(C(=O)N2CCCC(O)c3cc(Cl)ccc32)c(C)c1 (stereo not drawn)", "viability [%]": 63.8}
{"SMILES": "Cc1ccc(NC(=O)c2ccc(CN3CCN(C)CC3)cc2)cc1Nc1nc(-c2cccnc2)cs1", "viability [%]": 6.29}
{"SMILES": "CNCC[C@@H](Oc1ccccc1C)c1ccccc1", "viability [%]": 5.43}
{"data": "Mixed results", "target": "Calcium/calmodulin-dependent protein kinase type II subunit alpha (CAMK2A, Homo sapiens, UniProt Q9UQM7)", "observed": "enzyme activity", "mode": "inhibitor", "tested at": "10 µM", "sequence of UniProt Q9UQM7 (whole entry, looked up)": "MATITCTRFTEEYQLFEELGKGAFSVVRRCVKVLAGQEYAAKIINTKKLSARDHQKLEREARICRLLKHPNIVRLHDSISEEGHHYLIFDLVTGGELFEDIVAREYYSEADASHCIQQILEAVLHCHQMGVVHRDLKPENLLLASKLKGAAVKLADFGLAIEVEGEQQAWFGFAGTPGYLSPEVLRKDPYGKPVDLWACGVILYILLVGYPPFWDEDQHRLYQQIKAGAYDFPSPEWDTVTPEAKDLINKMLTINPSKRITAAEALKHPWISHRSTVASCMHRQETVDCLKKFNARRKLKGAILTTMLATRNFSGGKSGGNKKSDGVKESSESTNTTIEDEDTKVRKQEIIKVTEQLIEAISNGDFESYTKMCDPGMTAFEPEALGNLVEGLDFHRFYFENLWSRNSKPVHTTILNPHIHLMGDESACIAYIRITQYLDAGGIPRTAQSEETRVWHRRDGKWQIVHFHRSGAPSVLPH"}
{"SMILES": "COc1c2ccoc2c(OC[C@@H](O)C(C)(C)O)c2oc(=O)ccc12", "inhibition [%]": 2}
{"SMILES": "COc1cccc(-c2oc3ccccc3c(=O)c2O)c1", "inhibition [%]": -23}
{"note": "For quick reference, copied from above (sample 1):"}
{"target": "CHRM5 (Homo sapiens, UniProt P08912)", "inhibition": "-4.54%"}
{"target": "ADRA2B (Homo sapiens, UniProt P18089)", "inhibition": "16.6%"}
